Experimental data gathered from unrelated publications.
Compare with care: the assays were run in different laboratories. ± gives the spread as reported.
UniProt Q80W57, sequence (whole entry, looked up): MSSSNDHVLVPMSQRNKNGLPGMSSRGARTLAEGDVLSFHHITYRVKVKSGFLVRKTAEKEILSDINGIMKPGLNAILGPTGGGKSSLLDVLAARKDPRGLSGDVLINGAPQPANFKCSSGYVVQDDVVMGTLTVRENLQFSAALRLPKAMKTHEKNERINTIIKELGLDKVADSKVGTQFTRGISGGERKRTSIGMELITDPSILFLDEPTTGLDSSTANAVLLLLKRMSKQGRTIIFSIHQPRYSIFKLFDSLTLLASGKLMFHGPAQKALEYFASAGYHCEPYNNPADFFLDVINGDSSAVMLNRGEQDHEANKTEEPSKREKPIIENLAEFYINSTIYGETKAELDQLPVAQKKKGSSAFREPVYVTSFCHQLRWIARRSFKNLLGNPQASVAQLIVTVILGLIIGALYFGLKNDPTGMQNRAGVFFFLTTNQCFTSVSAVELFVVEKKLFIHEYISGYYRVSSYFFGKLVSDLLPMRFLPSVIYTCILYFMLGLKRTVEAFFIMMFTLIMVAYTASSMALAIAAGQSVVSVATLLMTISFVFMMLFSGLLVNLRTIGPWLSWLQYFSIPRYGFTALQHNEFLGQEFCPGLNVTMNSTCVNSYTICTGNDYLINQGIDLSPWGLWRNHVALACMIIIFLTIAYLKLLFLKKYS
UniProt P41149, sequence (whole entry, looked up): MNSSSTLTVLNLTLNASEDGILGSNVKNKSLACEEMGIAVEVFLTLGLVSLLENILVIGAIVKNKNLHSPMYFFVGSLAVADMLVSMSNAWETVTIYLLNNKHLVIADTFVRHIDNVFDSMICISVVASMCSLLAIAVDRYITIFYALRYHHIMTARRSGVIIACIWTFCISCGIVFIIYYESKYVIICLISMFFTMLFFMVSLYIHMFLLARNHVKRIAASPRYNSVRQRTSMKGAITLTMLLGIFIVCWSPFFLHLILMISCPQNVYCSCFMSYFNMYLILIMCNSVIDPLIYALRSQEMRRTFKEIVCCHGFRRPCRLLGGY

`Cn1cc(-c2cn3nccc3c(-c3cnn([C@]4(CC#N)C[C@@H](C#N)C4)c3)n2)cn1` has a dose-normalized AUC(0-tau) of 8.2 ng·h/mL/mg (healthy human, plasma; 200 mg twice daily, day 1, multiple dose, fed, geometric mean).
`COC(=O)Nc1nc2ccc(Sc3ccccc3)cc2[nH]1` has a thermodynamic solubility of 0.19 mg/g (shake-flask; Captex 355; 37 °C).
`CC(C)(CC(=O)N1CCCC1)NCC(=O)N1C[C@@H](F)C[C@H]1C#N`: “AUC(0-inf) at steady state” 1520 ng·h/mL (Chinese type 2 diabetes patients, plasma; oral, 100 mg once daily, multiple doses).
With `C[C@H](Oc1ccc(-c2nc(-c3ccc4[nH]cnc4c3)no2)cc1C(F)(F)F)C(F)(F)F` the plasma concentration was 11 ± 3.5 nM (cynomolgus monkey, aneurysm model, plasma; 0.1 mg/kg once daily, 1 h post-dose, 2 weeks dosing).
For `CCCC[C@H](NC(C)=O)C(=O)N[C@H]1CCC(=O)NC[C@@H](C(=O)N[C@@H](Cc2c[nH]c3ccccc23)C(N)=O)NC(=O)[C@H](CCCNC(=N)N)NC(=O)[C@@H](Cc2ccccc2)NC(=O)[C@H](Cc2c[nH]cn2)NC1=O`, the CL/F was 20.1 mL/min/kg (female rat, plasma; subcutaneous, 1 mg/kg/day, multiple doses, once daily).
`COC1=CC(=O)C[C@@H](C)[C@]12Oc1c(Cl)c(OC)cc(OC)c1C2=O` has a thermodynamic solubility of 8.13 ± 0.27 mg/g (shake-flask; polysorbate 80; 37 °C).
The recovery of `CCCCCCCCC/C=C/C(=O)CCc1ccc(O)c(OC)c1` is reported as 0.07% (rat, small intestine site 4 contents; oral, dose not given, 4 h, no β-glucuronidase treatment; reference: ingested amount).
Under peptide depletion, `CCCOC(=O)c1ccc(O)cc1` is recorded as “inactive” (cysteine peptide Ac-RFAACAA-COOH; DPRA RapidFire-MS/MS; 24 h, pH 7.5, with: 5.0 µM cysteine peptide).
`COc1cc2c(=O)c(-c3ccc(O)cc3)coc2cc1O[C@@H]1O[C@H](CO)[C@@H](O)[C@H](O)[C@H]1O` has a urine concentration of 5.48 µg/mL (human, urine; oral, dose not given, 5 h).
For `O=C(CCCN1CC=C(n2c(=O)[nH]c3ccccc32)CC1)c1ccc(F)cc1`, the QTc change was 6.7 ± 2.3% (male Hartley guinea pig, anaesthetized; intravenous infusion, 0.1 mg/kg, 10 min infusion; reference: baseline).
`CCOc1nc2cccc(C(=O)O)c2n1Cc1ccc(-c2ccccc2-c2nnn[nH]2)cc1` gave a thermodynamic solubility of ≤ 0.03 mg/g (shake-flask; soybean oil; 37 °C).
Under “median serum concentration”, `C[C@]12CC[C@@H]3c4ccc(O)cc4CC[C@H]3[C@@H]1C[C@@H](O)[C@@H]2O` is recorded as 0 ng/mL (GC-MS; breast cancer women on NSAI, serum; vaginal, 0.03 mg, 0.5 h, day 0).
`CCc1cc2c(cc1N1CCC(N3CCOCC3)CC1)C(C)(C)c1[nH]c3cc(C#N)ccc3c1C2=O`: “adverse events count” 2 (healthy humans; oral, 300 mg single dose).
Under “total plasma concentration ratio”, `O=C(O)CNC(=O)c1ccccc1` is recorded as 31 (human hemodialysis patients, plasma; pre-treatment; reference: hemodialysis over normal subjects).
For `CC[C@H](C)[C@H](NC(=O)[C@H](CS)NC(=O)[C@H](CCCNC(=N)N)NC(=O)[C@H](CCCNC(=N)N)NC(=O)[C@H](CC(N)=O)NC(=O)[C@H](CCCNC(=N)N)NC(=O)[C@H](CS)NC(=O)[C@@H](NC(=O)[C@@H](NC(=O)[C@@H](NC(=O)[C@H](CS)NC(=O)[C@H](CCCCN)NC(=O)[C@@H](N)CCCNC(=N)N)C(C)C)[C@@H](C)CC)C(C)C)C(=O)N[C@H](C(=O)N[C@@H](CC(C)C)C(=O)N[C@@H](CS)C(=O)N[C@@H](CCCNC(=N)N)C(=O)O)[C@@H](C)CC`, the two-disulfide form was 100% (LC/MS; PBS; 0.1 mg/mL; reference: LC peak area).
With `CNCc1ccc(-c2[nH]c3cc(F)cc4c3c2CCNC4=O)cc1` the AUC(0-t) was 10000 ng·h/mL (human, fasted, plasma; oral, 600 mg, 24 h, single dose, arithmetic mean).
The AUC(0-t) of `O=C(O)c1cc(/N=N/c2ccc(S(=O)(=O)Nc3ccccn3)cc2)ccc1O` is reported as 183 ± 84 ng·h/mL (Broad substrate specificity ATP-binding cassette transporter ABCG2 (Abcg2, Rattus norvegicus, UniProt Q80W57); substrate; male Sprague-Dawley rat, plasma; oral, 2 mg/kg).
The brain concentration of `S=C(NCCc1nc(-c2ccccc2)cs1)N1CCCCC1` is reported as 187 ± 89 nM (mice, brain; intraperitoneal, 5 mg/kg, 1 h).
`OCCN(CCO)c1nc(N2CCCCC2)c2nc(N(CCO)CCO)nc(N3CCCCC3)c2n1` has a thermodynamic solubility of 0.14 ± 0.02 mg/g (shake-flask; Captex 355; 37 °C).
The log P of `[11CH3]c1ccccc1O[C@@H](c1ccccc1)[C@@H]1CNCCO1` is reported as 2 to 2.47 (1-octanol/phosphate buffer; pH 7.4).
`COc1cnc(NS(=O)(=O)c2ccc(NC(=O)/C=C\c3ccc(O)c(O)c3)cc2)nc1` has a log P of > 0.5 (n-octanol/PBS; pH 7.4).
`CSCC[C@H](NC(=O)[C@H](CO)NC(=O)[C@H](Cc1ccc(O)cc1)NC(=O)[C@H](CO)NC(C)=O)C(=O)N[C@@H](CCC(=O)O)C(=O)N[C@@H](Cc1c[nH]cn1)C(=O)N[C@@H](Cc1ccccc1)C(=O)N[C@@H](CCCNC(=N)N)C(=O)N[C@@H](Cc1c[nH]c2ccccc12)C(=O)N[C@@H](C)C(=O)N[C@@H](CCCCN)C(=O)N1CCC[C@H]1C(=O)N[C@H](C(N)=O)C(C)C` gave an EC50 of 41 ± 17 nM (Melanocortin receptor 5 (Mus musculus, UniProt P41149)).
For `COC(=O)c1ccc2c(c1)NC(=O)/C2=C(\Nc1ccc(N(C)C(=O)CN2CCN(C)CC2)cc1)c1ccccc1`, “Cmax steady state” read 75.8 ng/mL (human mild liver impairment, plasma; oral, 150 mg twice daily, geometric mean).
`FC(F)(F)Oc1ccc(Oc2ccnc(N3CCC(NC(=S)Nc4cccnc4)CC3)c2Cl)c(Cl)c1` has a brain concentration of 3000 to 6000 nM (C57BL/6 mice, brain; i.p. or oral, 30 mg/kg, 4 h).
For `Cn1c(-c2ccc(C(N)=O)cc2F)nnc1C(C)(C)Oc1c(F)cc(Cl)cc1F`, the AUC(0-inf) median was 2180 ng·h/mL (young Japanese subjects, plasma; oral, 20 mg single dose, day 1).
For `O=C1N=C(N2CCOCC2)CN1c1ccc(Cl)cc1`, “apparent oral clearance” read 7.8 mL/min/kg (beagle dog, both sexes, plasma; oral, 30 mg/kg twice daily, day 5, tablets, after 4 days dosing).
Under “hepatic plasma clearance”, `C[C@@H](O)CCCCn1c(=O)c2c(ncn2C)n(C)c1=O` is recorded as 1.22 mL/min (male Crl:CD-1 mice; intravenous, 50 mg/kg, well-stirred model).
With `NC(=O)c1cnc2[nH]ccc2c1N[C@@H]1[C@@H]2CC3C[C@H]1C[C@@](O)(C3)C2` the AUC(0-inf) was 260 ng·h/mL (healthy Japanese men, plasma; oral, 20 mg, single dose fasted).
`COc1cccc2c1C(=O)c1c(O)c3c(c(O)c1C2=O)C[C@@](O)(C(=O)CO)C[C@@H]3O[C@H]1C[C@H](N)[C@H](O)[C@H](C)O1` gave a CK-MB of 127 ± 7 U/L (female BALB/c mice, serum; intravenous, 18 mg total in three doses, 2 weeks after last dose).
`Oc1ccc2c3c(cnc2c1)-c1ccc(C(F)(F)F)cc1O[C@@H]3c1ccc(OCCN2CC(CF)C2)cc1`: “AUC0‐tlast of total radioactivity” 17100 ng·h eq/mL (healthy postmenopausal women, plasma; oral solution, 400 mg [14C]-labelled, single dose, fasted; arithmetic mean).
For `NS(=O)(=O)OC[C@@H]1C[C@@H](n2ccc3c(N[C@H]4CCc5ccccc54)ncnc32)C[C@@H]1O`, “patients with grade ≥3 drug-related AEs” read 5% (human; intravenous, dose not given, with: itraconazole).
For `Cc1nc2cccc(OCC(C)(C)C(=O)NC(C)C)c2c(N)c1C(=O)O`, the Cmax was 231 ng/mL (male Sprague-Dawley rat, plasma; dietary, 100 mg/kg/day, day 90).
For `CC[C@H](C)[C@@H]1NC(=O)[C@H](Cc2ccc(O)cc2)NC(=O)[C@@H](N)CSSC[C@@H](C(=O)N2CCC[C@H]2C(=O)N[C@@H](CC(C)C)C(=O)NCC(N)=O)NC(=O)[C@H](CC(N)=O)NC(=O)[C@H](CCC(N)=O)NC1=O`, the Cmax was 3.27 ± 1.19 pg/sample (microdialysis, radioimmunoassay; knock-out male mice lacking compound, hippocampus extracellular fluid; intranasal, 12 µg).
For `Cc1cc(-c2ccc(/N=N/c3c(S(=O)(=O)O)cc4cc(S(=O)(=O)O)cc(N)c4c3O)c(C)c2)ccc1/N=N/c1c(S(=O)(=O)O)cc2cc(S(=O)(=O)O)cc(N)c2c1O`, “critical aggregation concentration” read 30 µM (dynamic light scattering; 50 mM potassium phosphate; pH 7.0).
With `CCCCN(CCCC)CCC(O)c1cc2c(Cl)cc(Cl)cc2c2cc(C(F)(F)F)ccc12` (centres unmarked) the thermodynamic solubility was 99.6 ± 2.82 mg/g (shake-flask; Captex 355; 37 °C).
For `CSc1cc(C)nc(SC)c1NC(=O)CN1CCN(CCSc2nc3ccccc3[nH]2)CC1`, the concentration was 4.5 ng/g (mouse Crl:CD1 (ICR) female, cerebrum; intranasal repeated, 32.4 µg in 0.01 N HCl, 30 min).
`Clc1ccccc1` — result for peptide depletion: “inactive” (cysteine peptide Ac-RFAACAA-COOH; DPRA RapidFire-MS/MS; 24 h, pH 7.5, with: 5.0 µM cysteine peptide).
`CC1=C2C[C@H]3[C@@H](CC[C@@H]4C[C@H](NS(C)(=O)=O)CC[C@@]43C)[C@@H]2CC[C@@]2(C1)O[C@@H]1C[C@H](C)CN[C@H]1[C@H]2C`: “AUClast and Cmax” “no effect” (human; oral, 130 mg, with: high-fat meal; reference: fasted).
With `[2H]C([2H])([2H])Oc1cc2c(cc1OC([2H])([2H])[2H])C1CC(=O)C(CC(C)C)CN1CC2` (centres unmarked) the dose-normalized Cmax was 1.7 ng/mL (refers to: deuterated α-HTBZ; healthy human volunteers, plasma; oral, 12 mg single dose, standard meal).
For `O=C1Cc2cc(CCN3CCN(c4nsc5ccccc45)CC3)c(Cl)cc2N1`, the QTc change was 7 ± 1.9% (male Hartley guinea pig, anaesthetized; intravenous infusion, 0.3 mg/kg, 10 min infusion; reference: baseline).
With `NC(=O)CN[C@@H]1CCCNC1` the pKa2 was 8.46 (capillary electrophoresis-MS; water).

For quick reference, copied from above:
With `C[C@H](Oc1ccc(-c2nc(-c3ccc4[nH]cnc4c3)no2)cc1C(F)(F)F)C(F)(F)F` the plasma concentration was 11 ± 3.5 nM (cynomolgus monkey, aneurysm model, plasma; 0.1 mg/kg once daily, 1 h post-dose, 2 weeks dosing).
For `CCCC[C@H](NC(C)=O)C(=O)N[C@H]1CCC(=O)NC[C@@H](C(=O)N[C@@H](Cc2c[nH]c3ccccc23)C(N)=O)NC(=O)[C@H](CCCNC(=N)N)NC(=O)[C@@H](Cc2ccccc2)NC(=O)[C@H](Cc2c[nH]cn2)NC1=O`, the CL/F was 20.1 mL/min/kg (female rat, plasma; subcutaneous, 1 mg/kg/day, multiple doses, once daily).
`COC1=CC(=O)C[C@@H](C)[C@]12Oc1c(Cl)c(OC)cc(OC)c1C2=O` has a thermodynamic solubility of 8.13 ± 0.27 mg/g (shake-flask; polysorbate 80; 37 °C).
The recovery of `CCCCCCCCC/C=C/C(=O)CCc1ccc(O)c(OC)c1` is reported as 0.07% (rat, small intestine site 4 contents; oral, dose not given, 4 h, no β-glucuronidase treatment; reference: ingested amount).
Under peptide depletion, `CCCOC(=O)c1ccc(O)cc1` is recorded as “inactive” (cysteine peptide Ac-RFAACAA-COOH; DPRA RapidFire-MS/MS; 24 h, pH 7.5, with: 5.0 µM cysteine peptide).
